Measurements collected from several papers.
Every numbered part comes from another study and shows a few of its results, in no order. “And” joins repeats or separate records; there may be more than shown.
UniProt P41145, sequence (whole entry, looked up): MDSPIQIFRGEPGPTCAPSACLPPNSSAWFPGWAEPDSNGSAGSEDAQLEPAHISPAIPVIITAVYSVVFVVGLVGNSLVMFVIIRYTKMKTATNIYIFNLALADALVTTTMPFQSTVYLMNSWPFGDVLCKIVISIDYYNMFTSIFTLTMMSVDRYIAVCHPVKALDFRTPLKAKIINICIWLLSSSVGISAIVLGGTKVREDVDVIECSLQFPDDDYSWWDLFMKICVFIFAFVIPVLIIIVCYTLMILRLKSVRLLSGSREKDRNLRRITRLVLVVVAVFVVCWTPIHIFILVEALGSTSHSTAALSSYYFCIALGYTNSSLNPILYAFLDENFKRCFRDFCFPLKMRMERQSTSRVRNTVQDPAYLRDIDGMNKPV
UniProt P20309, sequence (whole entry, looked up): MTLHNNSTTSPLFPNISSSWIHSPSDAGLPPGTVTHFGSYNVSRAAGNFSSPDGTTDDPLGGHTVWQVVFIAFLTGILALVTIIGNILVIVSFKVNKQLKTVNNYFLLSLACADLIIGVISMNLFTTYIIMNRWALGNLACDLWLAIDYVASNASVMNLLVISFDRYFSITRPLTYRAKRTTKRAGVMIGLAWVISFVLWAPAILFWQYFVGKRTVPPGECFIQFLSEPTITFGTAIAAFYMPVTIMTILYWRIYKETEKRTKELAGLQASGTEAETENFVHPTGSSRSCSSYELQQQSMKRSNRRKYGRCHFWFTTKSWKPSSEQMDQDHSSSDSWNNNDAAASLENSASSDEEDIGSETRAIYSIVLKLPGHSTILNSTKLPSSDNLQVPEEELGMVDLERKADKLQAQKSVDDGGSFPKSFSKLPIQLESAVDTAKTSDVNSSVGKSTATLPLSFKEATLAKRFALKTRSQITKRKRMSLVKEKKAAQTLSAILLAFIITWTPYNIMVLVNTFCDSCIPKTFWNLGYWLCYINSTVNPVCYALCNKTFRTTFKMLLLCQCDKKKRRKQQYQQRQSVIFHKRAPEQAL
UniProt P28223, sequence (whole entry, looked up): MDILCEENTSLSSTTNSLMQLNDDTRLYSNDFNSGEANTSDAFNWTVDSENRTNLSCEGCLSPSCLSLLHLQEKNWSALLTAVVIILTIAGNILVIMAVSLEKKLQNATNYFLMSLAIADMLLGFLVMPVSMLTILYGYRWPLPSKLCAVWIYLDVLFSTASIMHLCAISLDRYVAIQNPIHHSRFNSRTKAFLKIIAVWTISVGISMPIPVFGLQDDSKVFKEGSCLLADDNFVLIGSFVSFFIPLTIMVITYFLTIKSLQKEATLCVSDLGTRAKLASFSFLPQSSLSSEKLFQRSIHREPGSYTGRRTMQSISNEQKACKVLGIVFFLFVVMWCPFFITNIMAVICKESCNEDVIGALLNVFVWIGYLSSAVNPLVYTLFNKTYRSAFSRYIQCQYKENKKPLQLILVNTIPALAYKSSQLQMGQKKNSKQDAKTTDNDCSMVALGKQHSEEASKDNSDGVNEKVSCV
UniProt P35372, sequence (whole entry, looked up): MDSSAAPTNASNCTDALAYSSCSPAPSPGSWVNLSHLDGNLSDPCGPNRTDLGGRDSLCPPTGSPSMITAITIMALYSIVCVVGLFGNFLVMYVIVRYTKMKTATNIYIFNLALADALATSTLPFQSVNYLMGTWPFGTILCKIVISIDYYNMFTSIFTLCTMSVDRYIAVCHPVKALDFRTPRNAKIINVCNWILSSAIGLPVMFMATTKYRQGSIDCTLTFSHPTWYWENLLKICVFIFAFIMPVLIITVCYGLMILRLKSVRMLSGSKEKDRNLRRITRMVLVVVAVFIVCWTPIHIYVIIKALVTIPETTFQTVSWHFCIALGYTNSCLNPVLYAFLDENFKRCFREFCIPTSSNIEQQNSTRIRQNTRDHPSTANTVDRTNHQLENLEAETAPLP

Series 1
Target: Eukaryotic initiation factor 4A-I (EIF4A1, Homo sapiens, UniProt P60842)
UniProt P60842, sequence (whole entry, looked up): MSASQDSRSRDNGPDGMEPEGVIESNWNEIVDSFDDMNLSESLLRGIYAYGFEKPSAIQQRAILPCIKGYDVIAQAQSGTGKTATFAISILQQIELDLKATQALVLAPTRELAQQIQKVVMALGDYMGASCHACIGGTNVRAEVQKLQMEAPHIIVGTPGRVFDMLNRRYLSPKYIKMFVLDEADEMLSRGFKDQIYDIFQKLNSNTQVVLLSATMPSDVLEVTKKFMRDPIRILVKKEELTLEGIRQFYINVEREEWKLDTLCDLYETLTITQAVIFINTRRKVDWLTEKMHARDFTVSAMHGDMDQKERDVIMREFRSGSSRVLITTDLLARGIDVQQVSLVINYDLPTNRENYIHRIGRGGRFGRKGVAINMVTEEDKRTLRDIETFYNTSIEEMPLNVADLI
Read-out: RNA clamping
Method: fluorescence polarization
Tested at: concentration not given
Notes: mean of two replicates
With: FAM-labelled poly r(AG)8 RNA
Compound	fluorescence polarization change
COc1ccc(-c2nc3c(c(=O)[nH]2)[C@@H](c2ccccc2)[C@]2(c4ccc(OC)cc4)Oc4cc(OC)cc(OC)c4[C@]32O)cc1	25.2 mP and 8.6 mP
COc1ccc([C@@]23Oc4cc(OC)cc(OC)c4[C@]2(O)c2nc(-c4ccccc4)n(C)c(=O)c2[C@H]3c2ccccc2)cc1	35.7 mP
COC(=O)[C@H]1[C@@H](c2ccccc2)C2(c3ccc(OC)cc3)Oc3cc(OC)cc(OC)c3[C@@]1(O)C2=O	3 mP
COc1ccc([C@@]23Oc4cc(OC)cc(OC)c4[C@]2(O)c2nc(-c4ccc(N(C)C)cc4)[nH]c(=O)c2[C@H]3c2ccccc2)cc1	8.6 mP
COC(=O)[C@H]1[C@@H](O)[C@@]2(O)c3c(OC)cc(O)cc3O[C@@]2(c2ccc(OC)cc2)[C@@H]1c1ccccc1	53.8 mP
COc1ccc([C@@]23Oc4cc(OC)cc(OC)c4[C@]2(O)c2nc4n(c(=O)c2[C@@H]3c2ccccc2)CCC4)cc1	30.2 mP
CONC(=O)[C@@H]1[C@@H](O)[C@@]2(O)c3c(OC)cc(OC)cc3O[C@@]2(c2ccc(Br)cc2)[C@H]1c1ccccc1	17.4 mP
COc1ccc([C@@]23Oc4cc(OC)cc(OC)c4[C@]2(O)c2nc4n(c(=O)c2[C@H]3c2ccccc2)CCCC4)cc1	51 mP
COC(=O)[C@@H]1[C@@H](O)[C@@]2(O)c3c(OC)cc(OC)cc3O[C@@]2(c2ccc(OC)cc2)[C@H]1c1ccccc1	20.3 mP
CCCCC1=N[C@@]2(O)[C@H](C(=O)OC)[C@@H](c3ccccc3)[C@]3(c4ccc(OC)cc4)Oc4cc(OC)cc(OC)c4[C@]23N1	67.5 mP

Series 2
Target: DNA polymerase theta, ATPase domain (POLQ, Homo sapiens, UniProt O75417)
UniProt O75417, sequence (whole entry, unmodified, looked up): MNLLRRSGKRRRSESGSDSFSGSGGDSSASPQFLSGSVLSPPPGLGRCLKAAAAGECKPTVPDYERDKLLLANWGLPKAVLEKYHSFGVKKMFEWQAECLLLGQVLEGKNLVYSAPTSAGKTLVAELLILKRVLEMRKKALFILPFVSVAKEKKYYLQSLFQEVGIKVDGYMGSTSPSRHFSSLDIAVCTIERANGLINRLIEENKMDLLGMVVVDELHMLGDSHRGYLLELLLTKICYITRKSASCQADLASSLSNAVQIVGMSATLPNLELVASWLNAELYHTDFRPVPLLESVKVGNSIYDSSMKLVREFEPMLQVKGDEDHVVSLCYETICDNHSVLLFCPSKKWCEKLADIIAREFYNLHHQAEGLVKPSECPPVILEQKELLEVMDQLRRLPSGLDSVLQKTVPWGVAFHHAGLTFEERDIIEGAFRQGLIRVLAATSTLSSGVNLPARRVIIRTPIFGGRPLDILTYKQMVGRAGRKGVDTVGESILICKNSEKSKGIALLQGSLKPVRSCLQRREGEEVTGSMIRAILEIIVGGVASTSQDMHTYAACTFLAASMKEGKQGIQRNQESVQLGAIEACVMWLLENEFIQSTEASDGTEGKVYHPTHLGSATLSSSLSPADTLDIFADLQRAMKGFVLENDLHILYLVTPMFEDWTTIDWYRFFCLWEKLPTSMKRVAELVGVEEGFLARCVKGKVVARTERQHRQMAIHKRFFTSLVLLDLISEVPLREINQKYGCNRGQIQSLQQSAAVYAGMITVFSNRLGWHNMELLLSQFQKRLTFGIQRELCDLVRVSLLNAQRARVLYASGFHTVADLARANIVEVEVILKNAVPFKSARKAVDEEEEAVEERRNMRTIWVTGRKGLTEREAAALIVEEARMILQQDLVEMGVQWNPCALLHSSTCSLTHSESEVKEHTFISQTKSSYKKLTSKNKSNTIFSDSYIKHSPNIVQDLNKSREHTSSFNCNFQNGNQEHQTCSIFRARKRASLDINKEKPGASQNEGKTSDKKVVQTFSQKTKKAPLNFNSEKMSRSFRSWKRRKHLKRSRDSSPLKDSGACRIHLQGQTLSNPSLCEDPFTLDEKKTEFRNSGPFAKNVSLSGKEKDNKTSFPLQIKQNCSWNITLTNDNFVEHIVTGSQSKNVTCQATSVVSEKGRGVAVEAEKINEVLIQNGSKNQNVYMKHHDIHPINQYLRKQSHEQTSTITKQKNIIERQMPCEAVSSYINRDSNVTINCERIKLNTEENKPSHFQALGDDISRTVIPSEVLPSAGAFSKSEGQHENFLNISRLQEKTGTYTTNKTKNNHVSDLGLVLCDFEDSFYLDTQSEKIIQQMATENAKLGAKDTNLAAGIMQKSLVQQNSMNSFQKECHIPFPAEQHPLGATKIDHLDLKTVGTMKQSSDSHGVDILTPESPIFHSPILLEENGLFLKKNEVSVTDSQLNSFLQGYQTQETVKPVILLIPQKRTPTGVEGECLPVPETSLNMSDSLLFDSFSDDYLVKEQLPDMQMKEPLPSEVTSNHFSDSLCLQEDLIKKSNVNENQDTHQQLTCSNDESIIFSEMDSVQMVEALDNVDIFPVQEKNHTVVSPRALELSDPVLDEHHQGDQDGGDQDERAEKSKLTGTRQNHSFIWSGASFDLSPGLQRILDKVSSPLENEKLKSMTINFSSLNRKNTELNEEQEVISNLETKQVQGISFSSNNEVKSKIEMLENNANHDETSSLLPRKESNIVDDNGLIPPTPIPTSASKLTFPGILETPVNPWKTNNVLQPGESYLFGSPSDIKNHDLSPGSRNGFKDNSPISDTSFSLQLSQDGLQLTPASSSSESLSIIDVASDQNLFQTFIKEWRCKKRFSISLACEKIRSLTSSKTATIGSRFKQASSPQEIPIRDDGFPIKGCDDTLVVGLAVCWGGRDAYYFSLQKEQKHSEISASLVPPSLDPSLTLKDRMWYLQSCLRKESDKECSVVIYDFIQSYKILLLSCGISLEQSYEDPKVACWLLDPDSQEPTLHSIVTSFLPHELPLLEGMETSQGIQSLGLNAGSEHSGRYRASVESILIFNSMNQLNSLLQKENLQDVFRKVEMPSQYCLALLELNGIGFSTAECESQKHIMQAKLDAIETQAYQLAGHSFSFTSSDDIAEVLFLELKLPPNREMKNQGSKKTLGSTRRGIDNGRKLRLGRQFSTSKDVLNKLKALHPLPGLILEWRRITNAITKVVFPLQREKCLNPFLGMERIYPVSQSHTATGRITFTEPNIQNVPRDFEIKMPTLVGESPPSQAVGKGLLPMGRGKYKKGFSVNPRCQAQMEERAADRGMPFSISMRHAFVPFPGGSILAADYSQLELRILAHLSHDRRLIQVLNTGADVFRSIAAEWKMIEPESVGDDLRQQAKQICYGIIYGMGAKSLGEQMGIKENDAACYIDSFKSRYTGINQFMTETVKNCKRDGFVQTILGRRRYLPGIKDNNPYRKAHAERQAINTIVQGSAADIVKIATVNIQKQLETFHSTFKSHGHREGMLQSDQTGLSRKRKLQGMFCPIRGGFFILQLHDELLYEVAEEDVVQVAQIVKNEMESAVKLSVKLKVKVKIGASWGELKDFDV
Read-out: enzyme activity
Mode: inhibitor
Tested at: 77 µM
Reference: untreated
SMILES	remaining activity [%]
C=C(C)[C@H]1Cc2c(ccc3c2O[C@@H]2COc4cc(OC)c(OC)cc4[C@@H]2C3=O)O1	91.2
CC(C)Oc1cccnc1N(C)C1CCN(Cc2ccccc2)CC1	95.5
c1ccc2c(N3CCNCC3)cccc2c1	96.5
O=S(=O)(c1c(O)c(Cl)cc(Cl)c1Cl)c1c(O)c(Cl)cc(Cl)c1Cl	106
c1ccc2sc(C3(N4CCCCC4)CCCCC3)cc2c1	99.8

Series 3
Compound: FC(F)(F)c1ccc2c(c1)nc(-c1cccnc1)n2C1CC1
Read-out: cell-free assay
Tested at: 10 µM
target	inhibition
Muscarinic acetylcholine receptor M1 (CHRM1, Homo sapiens, UniProt P11229)	-7.11%
Kappa-type opioid receptor (OPRK1, Homo sapiens, UniProt P41145)	-1.84%
D(1B) dopamine receptor (DRD5, Homo sapiens, UniProt P21918)	22.5%
Muscarinic acetylcholine receptor M3 (CHRM3, Homo sapiens, UniProt P20309)	-1.22%
Mu-type opioid receptor (OPRM1, Homo sapiens, UniProt P35372)	-2.5%
Delta-type opioid receptor (OPRD1, Homo sapiens, UniProt P41143)	-9.33%
5-hydroxytryptamine receptor 2A (HTR2A, Homo sapiens, UniProt P28223)	4.15%

Series 4
Cell line: mouse MPNST tumor cells
Method: high-content nuclear imaging
Item: cell number
Tested at: 10 µM
Time: 12 h
Notes: mean of 2 replicates
Reference: plate mean
Reading: higher = more cells
SMILES	nuclei count [z-score]
Cc1ncc(CN2CC=C(c3ccccc3)CC2)c(N)n1	2.05
CN1CCc2cccc(Cl)c2CC1	1.45
O=C(CCCN1CCC(n2c(=O)[nH]c3ccccc32)CC1)c1ccc(F)cc1	2.46
OC(c1ccccc1)(c1ccccc1)C1CCNCC1	2.83
O=C1CN=C(c2cccc(Br)c2)c2oc3ccccc3c2N1	-2.1
CCC1(CC)C(=O)C=CNC1=O	0.626
O[C@H]1[C@H](O)[C@@H](O)CN2CC[C@H](O)[C@H]12	0.154
CC(=O)O[C@H]1C[C@H](O[C@H]2[C@@H](O)C[C@H](O[C@H]3[C@@H](O)C[C@H](O[C@H]4CC[C@@]5(C)[C@H](CC[C@@H]6[C@@H]5C[C@@H](O)[C@]5(C)[C@@H](C7=CC(=O)OC7)CC[C@]65O)C4)O[C@@H]3C)O[C@@H]2C)O[C@H](C)[C@H]1O[C@@H]1O[C@H](CO)[C@@H](O)[C@H](O)[C@H]1O	0.324

Excerpt of the above (series 2):
SMILES	remaining activity [%]
C=C(C)[C@H]1Cc2c(ccc3c2O[C@@H]2COc4cc(OC)c(OC)cc4[C@@H]2C3=O)O1	91.2
CC(C)Oc1cccnc1N(C)C1CCN(Cc2ccccc2)CC1	95.5
c1ccc2c(N3CCNCC3)cccc2c1	96.5
O=S(=O)(c1c(O)c(Cl)cc(Cl)c1Cl)c1c(O)c(Cl)cc(Cl)c1Cl	106
c1ccc2sc(C3(N4CCCCC4)CCCCC3)cc2c1	99.8
